Assay results pooled from the literature.
Compare with care: the assays were run in different laboratories.

Structure (SMILES) | test system | setting | how to read | oral bioavailability [%]
CCC(=O)NC1CC=C(c2cc3c(Nc4cc5ncsc5cc4F)ncnc3s2)CC1 (racemic) | BALB/c mouse | – | – | 117
COC1C=COC2(C)Oc3c(C)c(O)c4c(c3C2=O)C2=NC3(CCN(CC(C)C)CC3)NC2=C(NC(=O)C(C)=CC=CC(C)C(O)C(C)C(O)C(C)C(OC(=O)Nc2cnccn2)C1C)C4=O (stereo not drawn) | CD-1 mouse, female, plasma | oral, 10 mg/kg | – | 74
O=C1C2CC3CC1CC(C(=O)N1CCN(c4ccc([N+](=O)[O-])c5ncccc45)CC1)(C3)C2 | ICR mouse, male, plasma | oral, 5 mg/kg | baseline: intravenous 1 mg/kg | 3.83
CC(C)NC(=O)NC1CC=C(c2cc3c(Nc4cc5ncsc5cc4F)ncnc3s2)CC1 (racemic) | BALB/c mouse | – | – | 68.8
O=S(=O)(N[C@H]1CCC[C@@H](N2c3ccccc3CCc3ccccc32)[C@@H]1O)c1ccc(OC(F)(F)F)cc1 | mouse | oral, 100 mg/kg, solution formulation | – | 23
COC1C=COC2(C)Oc3c(C)c(O)c4c(c3C2=O)C2=NC3(CCN(CC(C)C)CC3)NC2=C(NC(=O)C(C)=CC=CC(C)C(O)C(C)C(O)C(C)C(OC(=O)c2cccnc2)C1C)C4=O (stereo not drawn) | CD-1 mouse, female, plasma | oral, 10 mg/kg | – | 79
Nc1nc2cnc(C(=O)N3CCOC[C@@H]3c3ccc(C(F)(F)F)cc3)cc2c2c1COC2 | mouse | oral, 5 mg/kg | – | 77
COC1C=COC2(C)Oc3c(C)c(O)c4c(c3C2=O)C2=NC3(CCN(CC(C)C)CC3)NC2=C(NC(=O)C(C)=CC=CC(C)C(O)C(C)C(O)C(C)C(OC(=O)c2cncnc2)C1C)C4=O (stereo not drawn) | CD-1 mouse, female, plasma | oral, 10 mg/kg | – | 80
CCC(=O)N1CCC=C(c2cc3c(Nc4cc5ncsc5cc4F)ncnc3s2)C1 | BALB/c mouse | – | – | 114

Excerpt of the above:
Structure (SMILES) | test system | setting | how to read | oral bioavailability [%]
CCC(=O)NC1CC=C(c2cc3c(Nc4cc5ncsc5cc4F)ncnc3s2)CC1 (racemic) | BALB/c mouse | – | – | 117
